Results pooled from the literature.
Numbered parts are unrelated; each lists some results of a single study.

Study 1
Target: Prothrombin, mature alpha-thrombin (F2, Homo sapiens, UniProt P00734)
Technique: aptamer microarray, sandwich
Form: DNA with 2'F-ANA
Medium: in vitro
Concentration: 200 nM
Notes: whole 15-mer aptamer, many near background
Together with: Cy3 exosite-II aptamer, 400 nM
Direction: higher = stronger binding
Measurement: mean fluorescence intensity
Oligonucleotide: GGTTGGTGTGGTTGG
Modification = 2'F-ANA at 1 6 11 13 15; value = 145 a.u.
Modification = 2'F-ANA at 1 3 5 6 7 8 11 13 14; value = 48.7 a.u.
Modification = 2'F-ANA at 2 4 11 12 14; value = 138 a.u.
Modification = 2'F-ANA at 1 2 3 5 6 7 13 14 15; value = 47.5 a.u.
Modification = 2'F-ANA at 2 3 6 7 10 12 15; value = 391 a.u.
Modification = 2'F-ANA at 2 3 4 7 9 10 12 13 14 15; value = 187 a.u.
Modification = 2'F-ANA at 4 5 6 7 9 10 11 13 14; value = 43.1 a.u.
Modification = 2'F-ANA at 1 5 8 10 14 15; value = 59.9 a.u.
Modification = 2'F-ANA at 3 4 5 6 10 12 14; value = 47.8 a.u.
Modification = 2'F-ANA at 1 2 3 4 6 7 8 9 12 13 15; value = 221 a.u.
Modification = 2'F-ANA at 1 2 3 4 5 6 13; value = 234 a.u.
Modification = 2'F-ANA at 1 2 5 6 7 9 10 11 12; value = 51.2 a.u.
Modification = 2'F-ANA at 8 10 11 15; value = 158 a.u.
Modification = 2'F-ANA at 2 3 5 6 7 9 13 14 15; value = 49.2 a.u.
Modification = 2'F-ANA at 2 14; value = 172 a.u.
Modification = 2'F-ANA at 1 3 5 6 8 9 12 14 15; value = 112 a.u.
Modification = 2'F-ANA at 2 3 4 5 8 9 10 11 12 13 15; value = 77.4 a.u.

Study 2
Target: Sal-like protein 4, full length isoform A (SALL4, Homo sapiens, UniProt Q9UJQ4, residues 1-1053)
Chain of UniProt Q9UJQ4 (whole entry, looked up): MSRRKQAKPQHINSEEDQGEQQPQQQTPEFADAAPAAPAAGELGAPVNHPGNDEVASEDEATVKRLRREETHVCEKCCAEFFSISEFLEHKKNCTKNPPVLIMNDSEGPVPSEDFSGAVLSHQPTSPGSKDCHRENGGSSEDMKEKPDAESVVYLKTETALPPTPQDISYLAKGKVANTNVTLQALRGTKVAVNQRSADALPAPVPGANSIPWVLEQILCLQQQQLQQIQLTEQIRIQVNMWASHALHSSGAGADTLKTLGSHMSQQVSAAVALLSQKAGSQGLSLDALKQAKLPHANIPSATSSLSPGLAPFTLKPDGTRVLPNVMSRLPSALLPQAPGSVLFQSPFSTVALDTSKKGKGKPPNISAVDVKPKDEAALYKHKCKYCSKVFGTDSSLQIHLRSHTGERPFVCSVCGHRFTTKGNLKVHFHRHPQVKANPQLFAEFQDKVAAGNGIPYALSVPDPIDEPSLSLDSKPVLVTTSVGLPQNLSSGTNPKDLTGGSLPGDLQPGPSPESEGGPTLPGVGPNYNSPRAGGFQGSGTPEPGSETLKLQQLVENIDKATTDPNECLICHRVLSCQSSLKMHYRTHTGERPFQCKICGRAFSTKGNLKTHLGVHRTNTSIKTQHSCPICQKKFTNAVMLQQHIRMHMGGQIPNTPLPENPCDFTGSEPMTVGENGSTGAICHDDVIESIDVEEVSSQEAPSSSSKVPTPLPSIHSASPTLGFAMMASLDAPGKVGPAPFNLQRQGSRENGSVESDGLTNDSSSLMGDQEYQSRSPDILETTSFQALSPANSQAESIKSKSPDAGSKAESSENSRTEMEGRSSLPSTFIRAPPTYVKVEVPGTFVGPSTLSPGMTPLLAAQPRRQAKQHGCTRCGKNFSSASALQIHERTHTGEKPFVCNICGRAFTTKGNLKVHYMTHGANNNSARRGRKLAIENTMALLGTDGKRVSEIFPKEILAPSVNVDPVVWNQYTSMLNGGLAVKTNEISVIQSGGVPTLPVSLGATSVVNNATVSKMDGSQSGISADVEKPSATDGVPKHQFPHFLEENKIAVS
Technique: universal PBM
Form: double-stranded DNA, one strand shown
Medium: in vitro
Concentration: 600 nM
Notes: 8-mer, flanks averaged, mean of replicates
Direction: higher = stronger binding
Measurement: E-score
Oligonucleotide = CTTCGCCC; value = -0.232
Oligonucleotide = CGTACACA; value = 0.00342
Oligonucleotide = AAAGTAAG; value = 0.167
Oligonucleotide = ATTCTGAA; value = 0.198
Oligonucleotide = GGGGACAC; value = -0.333
Oligonucleotide = CTTAAATC; value = 0.166
Oligonucleotide = GTACGCAA; value = -0.0155
Oligonucleotide = ACACCTTC; value = -0.0293
Oligonucleotide = ATCTCATC; value = 0.0854
Oligonucleotide = ATACCTTC; value = 0.0632
Oligonucleotide = ACTAATCG; value = 0.0834
Oligonucleotide = AGGTAACC; value = -0.127
Oligonucleotide = AGTAATGA; value = 0.254
Oligonucleotide = GATCATAA; value = 0.347
Oligonucleotide = AGCCGTTG; value = -0.186
Oligonucleotide = CCCGTTAC; value = 0.102
Oligonucleotide = GGCTTTCA; value = -0.036
Oligonucleotide = GGAACACA; value = -0.0445
Oligonucleotide = ATTTTATA; value = 0.374
Oligonucleotide = TGGGACAA; value = -0.0218

Study 3
Target: Interferon regulatory factor 7, full length, phosphomimetic (IRF7, Homo sapiens, UniProt Q92985, residues 1-503, S101K/S471D/S472D/S475D/S476D/S477D/S483D/S484D/S487D)
Chain of UniProt Q92985 (whole entry, unmodified, looked up): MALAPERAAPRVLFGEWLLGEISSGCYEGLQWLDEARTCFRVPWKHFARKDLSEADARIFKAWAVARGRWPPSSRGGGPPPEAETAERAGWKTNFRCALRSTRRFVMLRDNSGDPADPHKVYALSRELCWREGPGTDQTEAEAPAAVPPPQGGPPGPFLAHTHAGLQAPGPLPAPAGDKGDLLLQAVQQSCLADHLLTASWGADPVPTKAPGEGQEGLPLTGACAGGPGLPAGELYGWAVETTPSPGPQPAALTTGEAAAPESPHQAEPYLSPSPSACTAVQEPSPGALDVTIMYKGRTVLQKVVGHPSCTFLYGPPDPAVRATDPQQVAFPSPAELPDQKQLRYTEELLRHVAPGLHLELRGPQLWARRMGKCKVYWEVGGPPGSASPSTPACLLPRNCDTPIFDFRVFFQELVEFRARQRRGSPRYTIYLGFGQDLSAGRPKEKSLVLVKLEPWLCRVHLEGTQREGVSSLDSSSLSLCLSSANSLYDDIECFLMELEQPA
Technique: protein-binding microarray
Form: double-stranded DNA, one strand shown
Medium: in vitro
Concentration: 250 nM
Notes: 60-bp whole probe
Together with: salmon DNA 0.4 mg/ml
Reference: random background probes
Direction: higher = stronger binding
Measurement: log fluorescence
Constant ends, left off below: GCCTAGCAC … GTCTTGATTCGCTTGACGCTGCTG
Oligonucleotide = TTAGGTTTCGACTTTCGGTTTGTGCTA; value = 12.1 z-score
Oligonucleotide = TAAGGTTTCGGTTCCGGTTAGTGCTAG; value = 13 z-score
Oligonucleotide = GAAGGTATCGGACTGGGGACGTGCTAG; value = -0.222 z-score
Oligonucleotide = TTAGGACTGGGTATGGGTTAGTGCTAG; value = -0.378 z-score
Oligonucleotide = TTAGGACTGGTACTGCTTTAGTGCTAG; value = 0.282 z-score
Oligonucleotide = TTAGATATCGGGTTTCGATTTGTGCTA; value = 11.3 z-score
Oligonucleotide = TTAGAACTGGGGACTCGATTAGTGCTA; value = 0.436 z-score
Oligonucleotide = AAATATTTACCTCTCACGCAGTGCTAG; value = -0.0249 z-score
Oligonucleotide = GACGGTATCTACTTTCGGGACGTGCTA; value = 0.408 z-score
Oligonucleotide = GTCGAACTGAGTTTCGAGACGTGCTAG; value = 4.38 z-score
Oligonucleotide = TTAGGTCTCGGACTGGGTTCGTGCTAG; value = 0.427 z-score
Oligonucleotide = TCTCTGCTCCTTCTGACATCGTGCTAG; value = 0.0274 z-score
Oligonucleotide = GACGGACTGCTTTTTCTGACGTGCTAG; value = -0.109 z-score
Oligonucleotide = TTAGGTTACGGTTTCGGTTAGTGCTAG; value = 9.18 z-score
Oligonucleotide = GACGGTATCGGGTATCGGGGCGTGCTA; value = 0.206 z-score
Oligonucleotide = TTAGTTTTCCTACTGCTTTAGTGCTAG; value = 1.43 z-score
Oligonucleotide = TATTCTCTACTTGTGTCTAGGTGCTAG; value = 3.59 z-score
Oligonucleotide = TCAAGAATGTCCTTTCTCACTGTGCTA; value = 0.0725 z-score
Oligonucleotide = TCATGATTGAATCTCCCACTGTGCTAG; value = 0.128 z-score
Oligonucleotide = TCATATCTCTGTTTTTGACTGTGCTAG; value = 0.89 z-score
Oligonucleotide = GGCGAACTGAGTTTCGAGACGTGCTAG; value = 3.33 z-score
Oligonucleotide = GACGGTATCCGTATCCTGACGTGCTAG; value = 0.423 z-score
Oligonucleotide = TCTGTAATTCTTAGAACAGCGTGCTAG; value = -0.154 z-score
Oligonucleotide = TTAGATTTCGGGTAACGATTAGTGCTA; value = 0.821 z-score
Oligonucleotide = TCAATCCTATATCTGAAACTGTGCTAG; value = 0.79 z-score

Study 4
Target: RNA binding protein fox-1 homolog 2, RRM domain, GST-SBP tag (RBFOX2, Homo sapiens, UniProt O43251-10, residues 100-194)
Technique: RNA Bind-n-Seq
Form: RNA
Medium: in vitro
Concentration: 365 nM
Notes: natural RNA segment, single round, ends assumed
Reference: no-protein control
Direction: higher = stronger binding
Measurement: RBNS enrichment (R)
Constant ends, left off below: GGGAGUUCUACAGUCCGACGAUC … UGGAAUUCUCGGGUGCCAA
Construct (chain): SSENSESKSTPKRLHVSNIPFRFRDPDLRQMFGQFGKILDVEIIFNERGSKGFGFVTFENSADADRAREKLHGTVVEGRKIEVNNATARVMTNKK
Oligonucleotide = UUGAAGAAAAGCUUUCAGAGGGCAUGUAUAGGAAGUGAUUUUGGGGAAGUCGUUUUUUGUUUGUUUUUUGUUUUGUUUUGUUUUGUUUUGUUUUUUUGUUUGUGAACUAG; value = 8.6
Oligonucleotide = CCUGUUGGACAGGAUUGAUUGUUCGCAGUCUUAGACCAACACUUCAGUCAGAAAUGUUACUGGGAGGAGGAAAGGAAAAUCACUUUUUUUCCUCCAUGUGGAAAUGAGGA; value = 0.242
Oligonucleotide = CCACAGCCCACCUUGCAUGCAUGGCCAGCCCCUCCACUCCAGCCUGAGCCAUGUGUGCCCCUGCGGGAGGACCCAUUCAUGCCAGAAAGCUGGUAACUCCCUCCCAGCAU; value = 1.58
Oligonucleotide = GGAUGUCUGCGCCAGGGCCAGCCACAUGUGCAGUUUCUCUGACCCUUUUGCCUUGACAGGUCUCUCCUUGGGAUUUGCUCCUCCAGAACCUGAAUUGGAGAGCUUGACCU; value = 0.481
Oligonucleotide = CUGGGCCAGCCUGUAGCCUGACCGCACUAGUGGUCGCCCAGUCCCCAUCUCUGUGGCCCUCUGAAGCCCCAGCCCCCAUGCAUCAGCCUCUGGCACAUUUCCUCUCCUGC; value = 6.87
Oligonucleotide = GGUUUUGGUUUGUUUGUUUGUUUUUUCUUUUUUUGAGGAAUUUUCAGGGAAGUGAGGAAACCCUUGGGAGAGGACUUUGUACGCGCUGUGUAGGUGUUAGAUCUAAUUAC; value = 1.41
Oligonucleotide = GGGCUUCUGAGGUGGCCUCCUGCCCUGAUCAGGGACCCUCCCCGCUUUCCUGGGCCUCUCAGUUGAACAAAGCAGCAAAACAAAGGCAGUUUUAUAUGAAAGAUUAGAAG; value = 0.619
Oligonucleotide = ACACUGCUGAACCUUUCCUCUGGGACCCCCUGUGGCCCUCGCUCUGCCUCCUGUCCUUGUCGCUGUGCCCUGGUUUCCCUCCUCGGGCUUCUCGCCCCUCAGUGGUUUCC; value = 0.295
Oligonucleotide = AAUGAAAACAUUAAUGUGUUAAUACCCUGUAUGGAUAAUGCUUGACAUUUAGUGGUUUCCAAAAUAUAUUAGUAUAUUGUUGAACAUACAUUAUGCCUUAGAAAUGCACA; value = 0.546
Oligonucleotide = AGAGUUUACCAACAAAUAUUGACUGCAGUGAUUAACCAAGACAUUUUUGUUAACUAAAAAGUGAAAUAUGGGAUGGAUUCUAGAAAUGGGGUAUCUCUGUCCAUACUUCU; value = 0.341
Oligonucleotide = CUAAUACUCUUAACAUAGAUUAUGAAGUUAAGUGAAAUUUAUGGCUCUAACAGCAAAAUAAUUAAAGUGCCAUAGUUUCUCAAGUGACUAAAGUAGUUAUUAAAAUCAAG; value = 3.46
Oligonucleotide = CCUUUCACUGUAUGACUUGAAUCAGUUUUGAUUCUAUUUGUAAGUGUUUCUUGUCGUGAGGCACCUGCCAUGUCUGUUGCGUUUUCCUCGGCAGCGUGUAGGGCUUCAGC; value = 0.231

Study 5
Molecule: VKTKKRLNFDDK
Form: peptide
Direction: direction not given
Measurement: enrichment score
test = peptide binding; test system = yeast competitive growth; conditions = together with: B1-Cln2 chimera; value = -0.178
target or system = human cyclin A2; test = competitive growth deep sequencing; test system = Saccharomyces cerevisiae, cyclin A2-Cln2 fusion strain; conditions = peptide tiling library; value = 1.68
target or system = Saccharomyces cerevisiae; test = mating pheromone growth arrest, pooled competitive growth deep sequencing; test system = no Cln2 overexpression; conditions = peptide tiling library; value = 0.0388
target or system = Cln2 (Saccharomyces cerevisiae); test = peptide binding, competitive growth sequencing; test system = Saccharomyces cerevisiae, unfused Cln2 strain; conditions = peptide tiling library; value = -0.927
target or system = Saccharomyces cerevisiae; test = binding, competitive growth deep sequencing; test system = cyclin E1-Cln2 fusion strain; conditions = peptide tiling library; value = -0.546
target or system = Saccharomyces cerevisiae; test = cell growth, competitive growth deep sequencing; conditions = peptide tiling library, together with: cyclin F-Cln2 fusion; value = 2.06

Mixed results
Molecule = PhoQ, residues 284 288 289 292 302 303 ASVMEA; target = PhoP, residues 12 14 15 18 19 SYFRT (Escherichia coli, UniProt P23836); test = Sort-seq, item: YFP reporter; test system = E. coli; conditions = PhoQ-PhoP variant library, together with: 10 µM Mg2+; scale = reference: high Mg2+ state, higher = stronger signaling; measurement = fold induction; value = 1.07

Some of these lines once more (study 1):
Modification = 2'F-ANA at 1 2 5 6 7 9 10 11 12; value = 51.2 a.u.
Modification = 2'F-ANA at 8 10 11 15; value = 158 a.u.
Modification = 2'F-ANA at 2 3 5 6 7 9 13 14 15; value = 49.2 a.u.
Modification = 2'F-ANA at 2 14; value = 172 a.u.
Modification = 2'F-ANA at 1 3 5 6 8 9 12 14 15; value = 112 a.u.
